# Experimental data pooled from the literature.
# Compare with care: the assays were run in different laboratories. Values joined by “and” are separate records of one study, mostly repeats; a detail may differ. ± marks the error that the study gave.
SMILES,target,assay,test system,conditions,how to read,endpoint,value
CC[C@H](C)[C@@H]1NC(=O)[C@H](CC(C)C)NC(=O)CNC(=O)[C@H](CCCNC(=N)N)NC(=O)[C@H](Cc2c[nH]c3ccccc23)NC(=O)[C@H](CCSC)NC(=O)[C@H](CO)NC(=O)[C@H](CCC(=O)O)NC(=O)[C@H](Cc2ccccc2)NC(=O)[C@H](CC(=O)O)NC(=O)[C@H]([C@@H](C)O)NC(=O)CNC(=O)[C@H](CCC(=O)O)NC(=O)[C@H]([C@@H](C)O)NC(=O)CNC(=O)[C@H](CC(=O)O)NC1=O,"MDM2 (Homo sapiens, UniProt Q00987)","MDM2-ligand binding, inhibitor, AlphaLISA competition",,"0.04883 µM, added: GST-tagged MDM2 ligand",lower = stronger inhibition,AlphaLISA signal,10500 a.u. and 10800 a.u. and 10200 a.u.
COc1ccc(NC(=S)NCCN2CCC(C)CC2)cc1Cl,"uncharacterized protein (Anopheles gambiae, UniProt Q7QFG0)","enzyme activity, inhibitor, Ellman",,"up to 1000 µM, pH 7.4, 30 °C, added: 1 mM acetylthiocholine",,IC50,inactive
C=CC(=O)Nc1cc(-c2ccc(C(=O)N3CCCC(O)(CC)C3)cc2)ccc1F (stereo not drawn),"DNA dC->dU-editing enzyme APOBEC-3B, C-terminal domain (Homo sapiens, UniProt Q9UH17)","covalent adduct, intact protein MS, measured: mass +397 Da adduct of 25735 Da",,"125 µM, 5 h, 5-fold molar excess",,adducted protein,38% and 53%
N[C@H](C(=O)N1CCCC1)C1CCN(c2nccc3c(-c4ncc(Cl)cc4Cl)cccc23)CC1,"PADI2 (Homo sapiens, UniProt Q9Y2J8)",enzyme activity,,"0.006291 µM, high-affinity site, added: Ca2+ 1.5 mM",,kcat,1.66 s⁻¹ and 1.71 s⁻¹
CC(C)C[C@H](NC(=O)[C@H]1O[C@@H]1C(=O)O)C(=O)NCCCCN=C(N)N,"Pro-cathepsin H (Homo sapiens, UniProt P09668)",enzyme activity,,concentration not given,,remaining activity,101%
COCC1CCCCN1C(=O)n1cc(C(O)(c2ccccc2)c2ccccc2)nn1 (stereo not drawn),"sn-1-specific diacylglycerol lipase ABHD11 (Mus musculus, UniProt Q8K4F5)","probe labelling, inhibitor, competitive ABPP-SILAC",mouse T cells,"concentration not given, 4 h, protein level","reference: treated over DMSO cells, lower = stronger inhibition",SILAC activity ratio,0.14
CS(C)(=O)=Nc1ccc(-c2ccc(-c3nc4cc(O[C@@H]5CO[C@H]6[C@@H]5OC[C@H]6O)[nH]c4cc3F)cc2)cc1,"NPY2R (Homo sapiens, UniProt P49146)","ligand displacement, radioligand",,10 µM,,inhibition,-8%
CCOC(=O)[C@@H]1Cc2c(cc([N+](=O)[O-])cc2[N+](=O)[O-])[C@H](O)[C@]12C(=O)Nc1ccc(Br)cc12,"MAP3K9 (Homo sapiens, UniProt P80192)","binding, competition with immobilised ligand",,0.1 µM,,remaining binding,53%
O=C1NC(=O)c2c1c1cc(F)c[n+]3c1c1c2c2cc(O)ccc2[n]1[Ru-4]312([N]=C=S)[S+]3CC[S+]1CC[S+]2CC3 (stereo not drawn),"ITK (Homo sapiens, UniProt Q08881)",enzyme activity,,"100 nM, human enzyme, added: 10 µM ATP",reference: untreated,remaining activity,66%
O=C(CCc1ccc(Br)cc1)N[C@H]1CCOC1=O,"lasR (Pseudomonas aeruginosa, UniProt P25084)","reporter gene, agonist",Pseudomonas aeruginosa PAO-JP2,"100 µM, plasI-LVAgfp reporter",reference: OdDHL at same concentration,agonist activity,8%
CC(C)[C@H]1NC(=O)C[C@H]2/C=C/CCSSC[C@@H](NC1=O)C(=O)N[C@H](Cc1cccc3ccccc13)C(=O)NCC(=O)O2,"MAPK8 (Homo sapiens, UniProt P45983)","enzyme activity, inhibitor",,10 µM,,inhibition,-12.8%
CC(C)CC(O)(CC(C)C)c1cn(C(=O)N2CCCC2)nn1,"Platelet-activating factor acetylhydrolase IB subunit alpha1 (Pafah1b3, Mus musculus, UniProt Q61205)","probe labelling, inhibitor, competitive ABPP-SILAC, measured: Pafah1b3",mouse T cells,"concentration not given, 4 h, single peptide","reference: treated over DMSO cells, lower = stronger inhibition",SILAC activity ratio,1.19 and 1.04 and 1.12 and 1.17 and 1.25 and 1 and 1.3 and 1.4
COC1C2(O)C(=O)N3C=CC(C)(C)c4[nH]c5ccccc5c4C=C3C(=O)N2C23C(C)C(C)(C)N2c2ccccc2C13O (stereo not drawn),"uncharacterized protein (Ixodes scapularis, UniProt A0A0N9E2I2)",two-electrode voltage clamp,Xenopus oocytes,"concentration not given, added: ivermectin",,response amplitude,decreased
CC[C@H](C)[C@H](NC(=O)[C@H](CCCNC(=N)N)NC(=O)[C@H](CCCNC(=N)N)NC(=O)[C@H](CC(C)C)NC(=O)[C@H](Cc1ccccc1)NC(=O)CNC(=O)CNC(=O)[C@@H](N)Cc1ccc(O)cc1)C(=O)N[C@@H](CCCNC(=N)N)C(=O)N1CCC[C@H]1C(=O)N[C@@H](CCCCN)C(=O)N[C@@H](CC(C)C)C(=O)N[C@@H](CCCCN)C(=O)O,"GPR139 (Homo sapiens, UniProt Q6DWJ6)","Gαi2 activation, agonist, BRET",HEK293T/17,40 µM,,Emax,68.6%
C#CCCCCOc1ccc2c(c1)CCCN2C(=O)CCl,"Endoplasmic reticulum-Golgi intermediate compartment protein 3 (ERGIC3, Homo sapiens, UniProt Q9Y282)","mass spectrometry profiling, measured: ERGIC3",H460 cell lysate,"100 µM over 10 µM, UniProt Q9Y282",reference: high over low concentration,reactivity ratio,1.33
CCCCC/C=C\C/C=C\C/C=C\C/C=C\CCCC(=O)NCCc1ccc(O)c(O)c1,"Trpv1 (Mus musculus, UniProt Q704Y3, T551V)","ion current, agonist, whole-cell patch clamp",,T551V,reference: 3 mM 2-APB,maximal open probability,0.46 ± 0.09
CC(=O)N[C@@H](CCC(N)=O)C(=O)N[C@@H](CC1CCCCC1)C(=O)N[C@@H](CNC(=O)CCl)C(=O)N[C@@H](CC(C)C)C(=O)N[C@@H](Cc1ccccc1)C(=O)O,"Beta sliding clamp (Escherichia coli, UniProt P0A988, H175G)","binding, isothermal titration calorimetry",,"25 °C, H175G mutant peptide",,ΔH,-9.7 kcal/mol
Cc1c(Cl)c(=O)oc2cc(OCCCCCC[Se]C#N)ccc12,"CA12 (Homo sapiens, UniProt O43570)",stopped-flow CO2 hydration,,,reference: Ki CA II over Ki CA XII,selectivity ratio,> 1110
C[C@H](NCc1ccc(-c2ccc(C(F)(F)F)cc2)cc1)C(N)=O,"PAK1 (Homo sapiens, UniProt Q13153)","cell-free assay, competition with immobilised ligand",,1 µM,,inhibition,6%
COc1ccc(F)cc1S(=O)(=O)Nc1cnc2c(c1)C(=O)NCCO2,"PPARG (Homo sapiens, UniProt P37231)","ligand displacement, radioligand",,10 µM,,inhibition,-6%
CN(C)[C@H]1C[C@@]23CC[C@@]4(O2)C(=CC[C@]2(C)[C@@H](c5ccc6ccncc6c5)CC[C@H]24)C=C3[C@@H](O)[C@@H]1O,"MAP3K4 (Homo sapiens, UniProt Q9Y6R4)","ATP probe labelling, inhibitor, KiNativ profiling",,0.1 µM,,inhibition,16.7%

# A few entries again:
SMILES,target,assay,test system,conditions,how to read,endpoint,value
CC[C@H](C)[C@@H]1NC(=O)[C@H](CC(C)C)NC(=O)CNC(=O)[C@H](CCCNC(=N)N)NC(=O)[C@H](Cc2c[nH]c3ccccc23)NC(=O)[C@H](CCSC)NC(=O)[C@H](CO)NC(=O)[C@H](CCC(=O)O)NC(=O)[C@H](Cc2ccccc2)NC(=O)[C@H](CC(=O)O)NC(=O)[C@H]([C@@H](C)O)NC(=O)CNC(=O)[C@H](CCC(=O)O)NC(=O)[C@H]([C@@H](C)O)NC(=O)CNC(=O)[C@H](CC(=O)O)NC1=O,"MDM2 (Homo sapiens, UniProt Q00987)","MDM2-ligand binding, inhibitor, AlphaLISA competition",,"0.04883 µM, added: GST-tagged MDM2 ligand",lower = stronger inhibition,AlphaLISA signal,10500 a.u. and 10800 a.u. and 10200 a.u.
CC(C)C[C@H](NC(=O)[C@H]1O[C@@H]1C(=O)O)C(=O)NCCCCN=C(N)N,"Pro-cathepsin H (Homo sapiens, UniProt P09668)",enzyme activity,,concentration not given,,remaining activity,101%
